# Published values gathered from unrelated publications.
# Parts stem from different laboratories: compare values within a part only. Several values in a cell are separate wells, animals, samples, runs or records.
# Chain of UniProt P28482 (whole entry, looked up): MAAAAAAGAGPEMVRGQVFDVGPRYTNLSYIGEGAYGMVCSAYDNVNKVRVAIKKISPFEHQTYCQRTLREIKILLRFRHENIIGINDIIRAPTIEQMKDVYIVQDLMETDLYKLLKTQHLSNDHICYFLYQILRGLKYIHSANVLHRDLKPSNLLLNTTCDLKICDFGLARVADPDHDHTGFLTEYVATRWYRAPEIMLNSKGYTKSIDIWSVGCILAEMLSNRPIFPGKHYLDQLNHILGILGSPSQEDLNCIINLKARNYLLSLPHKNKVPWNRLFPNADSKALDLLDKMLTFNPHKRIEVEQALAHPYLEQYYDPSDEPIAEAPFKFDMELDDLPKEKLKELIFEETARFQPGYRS
# Chain of UniProt P49841 (whole entry, looked up): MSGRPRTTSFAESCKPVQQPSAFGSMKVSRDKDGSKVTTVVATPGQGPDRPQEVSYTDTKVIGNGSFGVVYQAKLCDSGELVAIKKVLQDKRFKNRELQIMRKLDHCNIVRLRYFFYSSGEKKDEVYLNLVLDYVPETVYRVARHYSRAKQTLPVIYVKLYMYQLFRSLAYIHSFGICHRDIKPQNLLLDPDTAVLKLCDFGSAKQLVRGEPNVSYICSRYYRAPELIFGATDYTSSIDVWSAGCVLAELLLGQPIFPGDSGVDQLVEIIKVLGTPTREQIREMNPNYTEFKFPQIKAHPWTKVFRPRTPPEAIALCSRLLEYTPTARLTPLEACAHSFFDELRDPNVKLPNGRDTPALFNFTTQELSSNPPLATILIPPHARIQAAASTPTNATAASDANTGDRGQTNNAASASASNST
# Chain of UniProt P49840 (whole entry, looked up): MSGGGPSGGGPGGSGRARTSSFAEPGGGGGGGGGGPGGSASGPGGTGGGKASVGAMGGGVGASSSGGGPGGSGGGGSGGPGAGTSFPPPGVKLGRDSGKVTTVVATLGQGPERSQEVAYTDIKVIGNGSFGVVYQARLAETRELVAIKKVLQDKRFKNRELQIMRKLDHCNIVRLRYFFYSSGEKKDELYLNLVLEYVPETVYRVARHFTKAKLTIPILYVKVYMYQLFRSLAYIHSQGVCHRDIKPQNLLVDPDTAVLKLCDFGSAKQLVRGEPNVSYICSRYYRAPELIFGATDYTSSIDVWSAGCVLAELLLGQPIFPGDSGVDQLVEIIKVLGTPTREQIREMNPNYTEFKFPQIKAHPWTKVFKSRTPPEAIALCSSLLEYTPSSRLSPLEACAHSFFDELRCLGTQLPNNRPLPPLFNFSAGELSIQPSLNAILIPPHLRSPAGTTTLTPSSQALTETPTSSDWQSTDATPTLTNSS

# Study 1 — mode: inhibitor; concentration: 10 µM; relative to: control
# Target: Diamine acetyltransferase 1 (Homo sapiens, UniProt P21673)
# Target sequence (P21673 1-171): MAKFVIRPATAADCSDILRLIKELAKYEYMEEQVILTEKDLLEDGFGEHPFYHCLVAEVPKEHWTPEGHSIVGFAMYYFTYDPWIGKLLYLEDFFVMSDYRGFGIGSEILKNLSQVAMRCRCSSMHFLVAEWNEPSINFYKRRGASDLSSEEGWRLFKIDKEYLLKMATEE
SMILES,remaining activity
C=CC(=C)CCC=C(C)C,102%
COc1cc2c(c(OC)c1OC)-c1ccc(OC)c(=O)cc1[C@@H](NC(C)=O)CC2,85.8%
C[C@@H]1C(=O)O[C@H]2C[C@]34[C@@H]5OC(=O)[C@]3(O[C@@H]3OC(=O)[C@H](O)[C@@]34[C@H](C(C)(C)C)[C@H]5O)[C@]21O,77.4%
COc1cc(O[C@@H]2O[C@H](CO[C@@H]3O[C@H](CO)[C@@H](O)[C@H](O)[C@H]3O)[C@@H](O)[C@H](O)[C@H]2O)c2c(O)c3c(=O)cc(C)oc3cc2c1,111%
CC(C)=CCc1c(O)cc(O)c2c(=O)c(-c3ccc(O)cc3)coc12,103%
O=C(O)c1ccco1,87.3%
COc1cc2oc(-c3ccc(O)c(O)c3)cc(=O)c2c(O)c1[C@@H]1O[C@H](CO)[C@@H](O)[C@H](O)[C@H]1O,94.1%
COc1ccc(-c2coc3cc(O)ccc3c2=O)cc1O,130%
COc1cc(/C=C/C(=O)CC(=O)/C=C/c2ccc(O)c(OC)c2)ccc1O,109%
CC(=O)OC/C=C(\C)CCC=C(C)C,91.1%
C=C[C@](C)(O)CC[C@@H]1[C@@]2(C)CCCC(C)(C)[C@@H]2CC[C@@]1(C)O,98.2%
C[C@@H]1CC[C@@]2(OC1)O[C@H]1C[C@H]3[C@@H]4CC=C5C[C@@H](O[C@@H]6O[C@H](CO)[C@@H](O[C@@H]7O[C@@H](CO)[C@H](O)[C@H]7O)[C@H](O)[C@H]6O[C@@H]6O[C@@H](C)[C@H](O)[C@@H](O)[C@H]6O)CC[C@]5(C)[C@H]4CC[C@]3(C)[C@H]1[C@@H]2C,96.1%
O=C1c2ccccc2C(=O)c2c(O)c(O)cc(O)c21,111%
O=Cc1ccc(O)cc1O,88.7%

# Study 2 — effect on: enzyme activity; mode: inhibitor; concentration: 0.5 µM; relative to: control
# Target: Activin receptor type-1-like (ACVRL1, Homo sapiens, UniProt P37023)
# Chain of UniProt P37023 (whole entry, looked up): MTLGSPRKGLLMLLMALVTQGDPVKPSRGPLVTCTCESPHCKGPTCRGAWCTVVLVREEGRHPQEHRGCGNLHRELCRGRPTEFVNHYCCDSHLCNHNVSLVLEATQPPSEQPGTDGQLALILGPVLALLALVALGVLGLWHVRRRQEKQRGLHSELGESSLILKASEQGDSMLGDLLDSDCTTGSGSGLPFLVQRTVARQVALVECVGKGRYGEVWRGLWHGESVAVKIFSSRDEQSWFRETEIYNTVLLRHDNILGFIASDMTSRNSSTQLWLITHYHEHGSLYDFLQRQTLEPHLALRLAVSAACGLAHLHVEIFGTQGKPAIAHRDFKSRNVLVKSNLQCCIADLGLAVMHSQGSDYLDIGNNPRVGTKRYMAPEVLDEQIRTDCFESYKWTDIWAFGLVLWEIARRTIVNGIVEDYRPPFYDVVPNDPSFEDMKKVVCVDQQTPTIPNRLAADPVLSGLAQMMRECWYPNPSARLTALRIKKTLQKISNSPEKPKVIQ
SMILES,remaining activity [%]
Cc1ccc(S(=O)(=O)/C=C/C#N)cc1,100
O=C1NC(=O)c2c1c1c3ccccc3[nH]c1c1[nH]c3cc(Br)ccc3c21,109
O=C1NC(=O)c2c1c1c3ccccc3[nH]c1n1cncc21,109
COc1cccc(-c2cc(=O)c3ccccc3o2)c1N,93.5
CCCCc1c(-c2ccc(OC)cc2)[nH]c2nccnc12,77
COc1ccc(COc2ccc(Cc3cnc(N)nc3N)cc2OC)cc1,101
Cc1cc(Nc2cc(N3CCN(C)CC3)nc(Sc3ccc(NC(=O)C4CC4)cc3)n2)[nH]n1,99.5
O=C1Cc2c([nH]c3ccc(Br)cc23)-c2ccccc2N1,99
Oc1cccc(-c2nc(N3CCOCC3)c3oc4ncccc4c3n2)c1,105
CCCNC(=O)Nc1ccc(Oc2ncnc3cc(OC)c(OC)cc23)cc1Cl,100
N#Cc1cnc2cnc(NCc3cccnc3)cc2c1Nc1ccc(F)c(Cl)c1,96.9
COc1ccc2c(c1)c(C1=C(c3c[nH]c4ccccc34)C(=O)NC1=O)cn2CCCN(C)C,87.8
c1ccc2c(-c3ccncc3)c[nH]c2c1,100
O=C1Nc2ccc(Br)cc2/C1=C/c1cc2c([nH]1)CCCC2,103
CN1CCN(c2ccc3nc(-c4c(N)c5c(F)cccc5[nH]c4=O)[nH]c3c2)CC1,125
O=Nc1c(-c2c(O)[nH]c3cc(Br)ccc23)[nH]c2ccccc12,103
O=C1Nc2ccccc2/C1=C\c1c(Cl)[nH]c2ccccc12,99.8
O=C(c1cc2cc(O)ccc2[nH]1)c1cc2cc(O)ccc2[nH]1,98.4
c1ccc(-c2n[nH]c3c2oc2ccccc23)cc1,111
CN(C)S(=O)(=O)c1ccc2c(c1)/C(=C/c1cc3c([nH]1)CCCC3)C(=O)N2,102
O=c1cc(N2CCOCC2)oc2c(-c3ccccc3)cccc12,91.9

# Study 3 — organism: Sarcocystis neurona; effect on: parasite growth; concentration: 10 µM; time: 96 h; setting: second screen; relative to: untreated
SMILES,log2 fold change
C=C(CC)C(=O)c1ccc(OCC(=O)O)c(Cl)c1Cl,-0.18
CO[C@H]1/C=C/O[C@@]2(C)Oc3c(C)c(O)c4c(O)c(c(/C=N/N5CCN(C)CC5)c(O)c4c3C2=O)NC(=O)/C(C)=C\C=C\[C@H](C)[C@H](O)[C@@H](C)[C@@H](O)[C@@H](C)[C@H](OC(C)=O)[C@@H]1C,0.59
CC(=O)OCC[N+](C)(C)C,0.19
Cc1nc2ccc(CN(C)c3ccc(C(=O)N[C@@H](CCC(=O)O)C(=O)O)s3)cc2c(=O)[nH]1,0.52
C[C@@H]1CN(CCCn2c3ccccc3c3ccccc32)C[C@H](C)N1,-0.0036
Cn1nnc2c(C(N)=O)ncn2c1=O,0.24
CCCSc1ccc2nc(NC(=O)OC)[nH]c2c1,2.01
CN(C)CCN(Cc1ccccc1)c1ccccn1,0.39
CN(C)CCOc1ccc(/C(=C(/CCCl)c2ccccc2)c2ccccc2)cc1,0.41
NCc1ccc(S(N)(=O)=O)cc1,0.54
O=C(C1CCCCC1)N1CC(=O)N2CCc3ccccc3C2C1 (centres unmarked),0.36
Cn1cc[nH]c1=S,0.22
COC1=C(OC)C(=O)C(CCCCCCCCCCO)=C(C)C1=O,0.3
CC1(C)S[C@@H]2[C@H](NC(=O)[C@H](N)c3ccc(O)cc3)C(=O)N2[C@H]1C(=O)O,0.34
CCN1CCN(c2cc3c(cc2F)c(=O)c(C(=O)O)cn3C2CC2)CC1,0.24
COc1ccccc1OCC(O)COC(N)=O (centres unmarked),0.23
Nc1nc(=O)c2nc(CNc3ccc(C(=O)N[C@@H](CCC(=O)O)C(=O)O)cc3)cnc2[nH]1,0.1
COc1ccc(-c2cc(=O)c3c(OC)c(OC)c(OC)c(OC)c3o2)cc1OC,-0.0254
Cc1onc(-c2c(Cl)cccc2Cl)c1C(=O)N[C@@H]1C(=O)N2[C@@H]1SC(C)(C)[C@@H]2C(=O)O,0.39

# Study 4
# SMILES: C[C@@H](NC(=O)Nc1cc2[nH]ncc2c(CO)n1)c1ccccc1
# SGK1: Serine/threonine-protein kinase Sgk1 (SGK1, Homo sapiens, UniProt O00141)
# Chain of UniProt O00141 (whole entry, looked up): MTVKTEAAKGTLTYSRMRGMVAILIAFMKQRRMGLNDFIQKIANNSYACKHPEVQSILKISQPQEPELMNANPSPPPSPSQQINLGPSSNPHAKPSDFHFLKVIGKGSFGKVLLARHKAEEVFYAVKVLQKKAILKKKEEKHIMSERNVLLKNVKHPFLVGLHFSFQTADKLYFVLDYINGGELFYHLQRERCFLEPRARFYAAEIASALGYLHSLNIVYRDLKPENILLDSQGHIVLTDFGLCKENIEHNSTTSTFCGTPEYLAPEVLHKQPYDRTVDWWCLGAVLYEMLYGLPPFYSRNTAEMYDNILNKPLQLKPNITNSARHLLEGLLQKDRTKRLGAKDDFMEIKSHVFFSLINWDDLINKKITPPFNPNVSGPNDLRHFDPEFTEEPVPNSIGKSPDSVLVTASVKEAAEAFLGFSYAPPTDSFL
target,assay,system,EC50
"Mitogen-activated protein kinase 1 (MAPK1, Homo sapiens, UniProt P28482)","target engagement, NanoBRET",live cells,0.122 µM and 0.117 µM and 0.048 µM
SGK1,"target engagement in cells, BRET",,> 50 µM
SGK1,"target engagement, NanoBRET",live cells,> 50 µM
"Glycogen synthase kinase-3 beta (GSK3B, Homo sapiens, UniProt P49841)","target engagement, NanoBRET",live cells,4.71 µM and 9.28 µM and 1.44 µM
"Glycogen synthase kinase-3 alpha (GSK3A, Homo sapiens, UniProt P49840)","target engagement, NanoBRET",live cells,15.2 µM and 11.4 µM and 11.6 µM

# Some of these lines once more (study 2):
SMILES,remaining activity [%]
O=C1NC(=O)c2c1c1c3ccccc3[nH]c1n1cncc21,109
COc1cccc(-c2cc(=O)c3ccccc3o2)c1N,93.5
CCCCc1c(-c2ccc(OC)cc2)[nH]c2nccnc12,77
